Assay results gathered from unrelated publications.
Parts stem from different laboratories: compare values within a part only.
Sequence of UniProt P23443 (whole entry, looked up): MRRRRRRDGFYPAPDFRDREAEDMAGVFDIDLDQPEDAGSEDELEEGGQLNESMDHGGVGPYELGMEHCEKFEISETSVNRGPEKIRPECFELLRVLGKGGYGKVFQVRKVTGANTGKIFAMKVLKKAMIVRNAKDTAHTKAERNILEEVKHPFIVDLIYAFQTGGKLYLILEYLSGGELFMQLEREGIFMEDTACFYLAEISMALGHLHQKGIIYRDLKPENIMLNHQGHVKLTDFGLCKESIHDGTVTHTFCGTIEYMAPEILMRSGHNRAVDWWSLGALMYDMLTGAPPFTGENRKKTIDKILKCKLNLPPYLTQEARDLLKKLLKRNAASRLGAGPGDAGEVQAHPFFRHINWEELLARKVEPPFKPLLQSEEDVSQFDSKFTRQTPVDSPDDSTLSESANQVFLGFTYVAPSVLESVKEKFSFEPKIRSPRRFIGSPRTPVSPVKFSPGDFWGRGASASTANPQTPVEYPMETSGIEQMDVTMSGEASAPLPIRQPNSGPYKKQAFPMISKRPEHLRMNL
Sequence of UniProt Q15375 (whole entry, looked up): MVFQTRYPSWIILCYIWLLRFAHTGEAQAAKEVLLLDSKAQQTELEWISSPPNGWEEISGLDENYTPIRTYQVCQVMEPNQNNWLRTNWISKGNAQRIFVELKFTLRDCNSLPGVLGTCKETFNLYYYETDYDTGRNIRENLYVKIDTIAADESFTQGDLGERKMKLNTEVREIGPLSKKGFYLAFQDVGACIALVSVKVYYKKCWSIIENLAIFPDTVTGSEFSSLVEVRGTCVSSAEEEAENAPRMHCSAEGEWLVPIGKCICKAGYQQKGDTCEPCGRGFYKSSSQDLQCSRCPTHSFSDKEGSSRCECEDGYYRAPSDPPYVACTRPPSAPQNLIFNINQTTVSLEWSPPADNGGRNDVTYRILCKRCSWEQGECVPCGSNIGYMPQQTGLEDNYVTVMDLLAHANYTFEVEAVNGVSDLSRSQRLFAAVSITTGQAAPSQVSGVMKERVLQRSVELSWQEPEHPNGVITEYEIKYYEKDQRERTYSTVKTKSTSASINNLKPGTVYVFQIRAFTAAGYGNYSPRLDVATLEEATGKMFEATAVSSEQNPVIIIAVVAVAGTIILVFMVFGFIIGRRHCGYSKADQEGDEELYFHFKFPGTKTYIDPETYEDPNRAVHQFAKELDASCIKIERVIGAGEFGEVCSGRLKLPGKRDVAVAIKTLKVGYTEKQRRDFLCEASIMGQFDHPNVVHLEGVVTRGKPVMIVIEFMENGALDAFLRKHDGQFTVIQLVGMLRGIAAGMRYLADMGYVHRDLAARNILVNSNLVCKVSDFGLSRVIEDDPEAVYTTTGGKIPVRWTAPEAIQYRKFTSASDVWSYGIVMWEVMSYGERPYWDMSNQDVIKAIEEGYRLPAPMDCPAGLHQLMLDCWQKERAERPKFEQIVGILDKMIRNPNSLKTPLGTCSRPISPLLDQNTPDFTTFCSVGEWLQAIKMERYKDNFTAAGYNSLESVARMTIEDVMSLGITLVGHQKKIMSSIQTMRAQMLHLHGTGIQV
Sequence of UniProt P41240 (whole entry, looked up): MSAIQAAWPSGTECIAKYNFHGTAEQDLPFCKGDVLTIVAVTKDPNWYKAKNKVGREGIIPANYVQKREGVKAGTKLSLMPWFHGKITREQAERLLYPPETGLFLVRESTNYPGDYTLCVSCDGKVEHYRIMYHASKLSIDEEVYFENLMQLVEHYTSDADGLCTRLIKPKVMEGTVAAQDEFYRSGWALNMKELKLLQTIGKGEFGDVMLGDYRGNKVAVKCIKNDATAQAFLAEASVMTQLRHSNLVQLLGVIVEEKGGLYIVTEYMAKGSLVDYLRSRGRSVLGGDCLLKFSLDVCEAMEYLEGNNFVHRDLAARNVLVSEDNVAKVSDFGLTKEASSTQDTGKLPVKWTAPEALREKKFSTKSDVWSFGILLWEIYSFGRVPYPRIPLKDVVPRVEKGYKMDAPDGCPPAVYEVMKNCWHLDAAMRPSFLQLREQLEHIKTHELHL
Sequence of UniProt Q13177 (whole entry, looked up): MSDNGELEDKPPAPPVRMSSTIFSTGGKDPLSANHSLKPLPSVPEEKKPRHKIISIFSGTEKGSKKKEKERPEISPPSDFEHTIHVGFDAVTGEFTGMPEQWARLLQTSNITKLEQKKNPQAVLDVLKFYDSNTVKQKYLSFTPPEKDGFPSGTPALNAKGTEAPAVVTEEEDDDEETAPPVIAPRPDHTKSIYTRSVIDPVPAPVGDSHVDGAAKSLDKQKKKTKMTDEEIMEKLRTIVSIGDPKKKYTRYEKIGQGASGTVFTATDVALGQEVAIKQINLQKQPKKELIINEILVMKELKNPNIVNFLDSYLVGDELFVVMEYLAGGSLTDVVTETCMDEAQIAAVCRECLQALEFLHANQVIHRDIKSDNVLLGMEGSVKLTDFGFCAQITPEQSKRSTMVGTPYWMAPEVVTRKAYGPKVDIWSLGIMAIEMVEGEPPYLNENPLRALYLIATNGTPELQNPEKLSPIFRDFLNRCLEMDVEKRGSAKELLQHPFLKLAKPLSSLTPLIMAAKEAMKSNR

Study 1 — cell line: HaCaT; concentration: 100 µM; time: 36 h
SMILES | viability
CCC1(c2ccc(N)cc2)CCC(=O)NC1=O (centres unmarked) | 85.4%
CCCCCCC(=O)O[C@H]1CC[C@H]2[C@@H]3CCC4=CC(=O)CC[C@]4(C)[C@H]3CC[C@]12C | 50.3%
Oc1cccc2cccnc12 | 29.4%
NCC(CC(=O)O)c1ccc(Cl)cc1 (centres unmarked) | 82.8%
CC(C)C(Br)C(=O)NC(N)=O (centres unmarked) | 114%
Cc1ccc(/N=C/N(C)/C=N/c2ccc(C)cc2C)c(C)c1 | 8.37%
O=P1(N(CCCl)CCCl)NCCCO1 (centres unmarked) | 96.9%
CCN(CC)C(C)C(=O)c1ccccc1 (centres unmarked) | 89.7%

Study 2 — read-out: enzyme activity; action: inhibitor; concentration: 0.5 µM; relative to: control
Structure (SMILES): CCn1cnc2c(Nc3cccc(Cl)c3)nc(N[C@H]3CCCC[C@H]3N)nc21
target | remaining activity [%]
CSK (Homo sapiens, UniProt P41240) | 85.5
FGFR4 (Homo sapiens, UniProt P22455) | 97.5
GRK2 (Homo sapiens, UniProt P25098) | 96.5
CSF1R (Homo sapiens, UniProt P07333) | 94.2
PIM2 (Homo sapiens, UniProt Q9P1W9) | 111
PRKCE (Homo sapiens, UniProt Q02156) | 90.6
SGK1 (Homo sapiens, UniProt O00141) | 120
PRKCG (Homo sapiens, UniProt P05129) | 95
MYLK (Homo sapiens, UniProt Q15746) | 91
GSK3A (Homo sapiens, UniProt P49840) | 103
PAK2 (Homo sapiens, UniProt Q13177) | 93.9
SRPK3 (Homo sapiens, UniProt Q9UPE1) | 94.9
EPHA7 (Homo sapiens, UniProt Q15375) | 87.6
RPS6KB1 (Homo sapiens, UniProt P23443) | 97.3
EPHB2 (Homo sapiens, UniProt P29323) | 82.9
GRK6 (Homo sapiens, UniProt P43250) | 99.6
Aurora kinase C (AURKC, Homo sapiens, UniProt Q9UQB9) | 94.5
FLT3 (Homo sapiens, UniProt P36888) | 12.7
NUAK1 (Homo sapiens, UniProt O60285) | 52.4

Study 3 — read-out: enzyme activity; action: inhibitor; concentration: 77 µM
Target: DNA polymerase theta, ATPase domain (POLQ, Homo sapiens, UniProt O75417)
Sequence of UniProt O75417 (whole entry, unmodified, looked up): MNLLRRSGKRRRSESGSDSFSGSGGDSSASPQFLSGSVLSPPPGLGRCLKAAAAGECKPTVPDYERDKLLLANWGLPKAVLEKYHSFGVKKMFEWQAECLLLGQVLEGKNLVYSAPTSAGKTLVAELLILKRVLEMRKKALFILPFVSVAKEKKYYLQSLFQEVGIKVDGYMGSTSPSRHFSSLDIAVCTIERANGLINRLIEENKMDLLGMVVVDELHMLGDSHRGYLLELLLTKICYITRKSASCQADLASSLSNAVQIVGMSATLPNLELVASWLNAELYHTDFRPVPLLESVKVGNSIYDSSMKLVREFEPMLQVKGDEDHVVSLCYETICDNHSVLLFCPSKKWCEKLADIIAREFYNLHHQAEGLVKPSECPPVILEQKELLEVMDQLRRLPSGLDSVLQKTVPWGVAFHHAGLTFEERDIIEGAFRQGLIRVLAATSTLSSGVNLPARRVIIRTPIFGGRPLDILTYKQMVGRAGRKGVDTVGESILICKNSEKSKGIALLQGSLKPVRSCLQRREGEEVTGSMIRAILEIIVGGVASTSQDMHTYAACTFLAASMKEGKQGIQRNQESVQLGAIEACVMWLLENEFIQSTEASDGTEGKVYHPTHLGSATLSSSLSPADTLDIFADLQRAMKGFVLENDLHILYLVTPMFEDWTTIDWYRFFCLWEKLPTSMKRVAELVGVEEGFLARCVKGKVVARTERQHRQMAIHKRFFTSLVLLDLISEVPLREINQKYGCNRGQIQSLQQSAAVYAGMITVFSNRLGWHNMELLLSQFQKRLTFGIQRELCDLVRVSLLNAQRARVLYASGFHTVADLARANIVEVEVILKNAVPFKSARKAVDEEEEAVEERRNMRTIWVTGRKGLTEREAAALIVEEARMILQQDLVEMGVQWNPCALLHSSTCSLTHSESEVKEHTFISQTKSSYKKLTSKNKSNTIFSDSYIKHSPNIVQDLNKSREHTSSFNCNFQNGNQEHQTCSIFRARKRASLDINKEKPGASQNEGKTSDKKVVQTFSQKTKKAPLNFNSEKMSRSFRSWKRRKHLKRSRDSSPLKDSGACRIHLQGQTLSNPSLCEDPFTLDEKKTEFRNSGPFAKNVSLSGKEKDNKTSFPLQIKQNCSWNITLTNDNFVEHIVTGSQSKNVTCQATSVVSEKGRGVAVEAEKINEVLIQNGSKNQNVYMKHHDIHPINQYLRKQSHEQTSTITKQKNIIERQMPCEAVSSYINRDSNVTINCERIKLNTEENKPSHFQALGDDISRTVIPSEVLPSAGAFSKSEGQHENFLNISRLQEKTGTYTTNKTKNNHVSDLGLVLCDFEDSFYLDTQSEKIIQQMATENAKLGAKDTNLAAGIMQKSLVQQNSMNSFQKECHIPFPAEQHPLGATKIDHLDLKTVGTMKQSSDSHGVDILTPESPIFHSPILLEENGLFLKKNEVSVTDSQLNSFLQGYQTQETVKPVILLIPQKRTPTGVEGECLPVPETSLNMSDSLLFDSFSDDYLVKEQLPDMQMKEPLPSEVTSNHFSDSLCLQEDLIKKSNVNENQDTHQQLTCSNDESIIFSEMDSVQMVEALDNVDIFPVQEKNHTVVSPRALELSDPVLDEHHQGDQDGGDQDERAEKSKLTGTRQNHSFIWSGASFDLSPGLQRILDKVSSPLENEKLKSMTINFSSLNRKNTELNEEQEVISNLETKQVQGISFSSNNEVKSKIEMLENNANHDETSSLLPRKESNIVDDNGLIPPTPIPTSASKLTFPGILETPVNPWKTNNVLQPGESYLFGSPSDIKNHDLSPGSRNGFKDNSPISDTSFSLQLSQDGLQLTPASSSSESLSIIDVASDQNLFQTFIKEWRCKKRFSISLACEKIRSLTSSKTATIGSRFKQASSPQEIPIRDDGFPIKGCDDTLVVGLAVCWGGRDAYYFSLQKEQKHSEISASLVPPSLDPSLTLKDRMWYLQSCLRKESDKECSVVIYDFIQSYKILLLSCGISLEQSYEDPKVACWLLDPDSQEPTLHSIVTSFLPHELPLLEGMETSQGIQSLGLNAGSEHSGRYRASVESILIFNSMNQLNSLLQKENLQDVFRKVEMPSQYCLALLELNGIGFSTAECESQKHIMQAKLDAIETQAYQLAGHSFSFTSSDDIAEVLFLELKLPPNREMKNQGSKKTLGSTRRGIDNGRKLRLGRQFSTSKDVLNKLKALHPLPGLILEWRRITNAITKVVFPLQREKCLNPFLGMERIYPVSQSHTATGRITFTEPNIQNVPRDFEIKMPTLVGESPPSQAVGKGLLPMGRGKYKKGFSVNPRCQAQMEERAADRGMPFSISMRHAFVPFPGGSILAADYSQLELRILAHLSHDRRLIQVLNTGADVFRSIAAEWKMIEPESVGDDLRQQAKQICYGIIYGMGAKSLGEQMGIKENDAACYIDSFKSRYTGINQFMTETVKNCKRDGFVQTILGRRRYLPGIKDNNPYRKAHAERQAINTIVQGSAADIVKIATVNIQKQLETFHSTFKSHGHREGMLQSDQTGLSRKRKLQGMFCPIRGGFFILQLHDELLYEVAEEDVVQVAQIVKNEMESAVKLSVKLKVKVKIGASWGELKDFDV
Structure (SMILES) | remaining activity [%]
C=C1[C@H]2C[C@@]3([C@@H]1O)[C@@H](C[C@@H]2O)[C@]12[C@@H]4C[C@H]3[C@H]1N(CC)C[C@]4(C)CC[C@@H]2O | 101
CN(C(=O)Cc1ccc(Cl)c(Cl)c1)C(CN1CCCC1)c1cccc(OCC(=O)O)c1 (centres unmarked) | 100
CC1=NCCc2c1[nH]c1cc(O)ccc21 | 101
COC(=O)N1CCN(C(=O)Cc2ccc(Cl)c(Cl)c2)C(CN2CCCC2)C1 (centres unmarked) | 112
C=C[C@H]1CN2CC[C@H]1C[C@@H]2[C@@H](O)c1ccnc2ccccc12 | 106
CCNC1(c2cccs2)CCCCC1=O (centres unmarked) | 92.8
c1cncc([C@@H]2CCCCN2)c1 | 100
C[N+]1([O-])[C@@H]2CC(OC(=O)[C@H](CO)c3ccccc3)C[C@H]1[C@@H]1O[C@@H]12 (some centres unmarked) | 91.7
O=C1C=CC[C@@H]2[C@H]3CCCN4CCC[C@@H](CN12)[C@@H]34 | 105
CC(C)[C@@]1(NC(=O)[C@@H]2C[C@@H]3c4cccc5[nH]cc(c45)C[C@H]3N(C)C2)O[C@@]2(O)[C@@H]3CCCN3C(=O)[C@H](Cc3ccccc3)N2C1=O | 101
c1ccc(CCCN2CCN(CCOC(c3ccccc3)c3ccccc3)CC2)cc1 | 99.2
C#C[C@]1(O)CC[C@H]2[C@@H]3CCC4=Cc5nc6nc7ccccc7n6cc5C[C@]4(C)[C@H]3CC[C@@]21C | 102
CC(=O)O[C@H]1C[C@H](O[C@H]2[C@@H](O)C[C@H](O[C@H]3[C@@H](O)C[C@H](O[C@H]4CC[C@@]5(C)[C@H](CC[C@@H]6[C@@H]5C[C@@H](O)[C@]5(C)[C@@H](C7=CC(=O)OC7)CC[C@]65O)C4)O[C@@H]3C)O[C@@H]2C)O[C@H](C)[C@H]1O[C@@H]1O[C@H](CO)[C@@H](O)[C@H](O)[C@H]1O | 111
CN1[C@@H]2CC(O)C[C@H]1[C@@H]1O[C@@H]12 (some centres unmarked) | 94.5
C[C@@H]1NCCc2cc(O)c(O)cc21 | 98.9
NCC(O)c1cc(O)c(O)cc1F (centres unmarked) | 99.8
CC1=NN=C(c2ccc(N)cc2)c2cc3c(cc2C1)OCO3 | 95.2
C[C@H]1O[C@@H](O[C@H]2CC[C@]3(C=O)[C@H]4CC[C@]5(C)[C@@H](C6=CC(=O)OC6)CC[C@]5(O)[C@@H]4CC[C@]3(O)C2)C[C@H](O)[C@@H]1O | 96.8
CN1[C@@H]2CC[C@H]1C[C@@H](OC(c1ccccc1)c1ccccc1N)C2 (some centres unmarked) | 98.8
CN1CCC2=C[C@H](O)[C@H]3OC(=O)c4cc5c(cc4[C@H]3[C@@H]21)OCO5 | 101
C(#CCN1CCCC1)CN1CCCC1 | 104
COc1cc2c(cc1O)C[C@H]1c3c(cc(O)c(OC)c3-2)CCN1C | 99

Study 4 — cell line: Huh-7; concentration: 10 µM; time: 24 h
SMILES | viability
NCC(CC(=O)O)c1ccc(Cl)cc1 (centres unmarked) | 100%
C[C@H](N)[C@H](O)c1ccc(O)c(O)c1 | 100%
CCC(N)C(O)c1ccc(O)c(O)c1 (centres unmarked) | 98.5%
COc1ccc2c(c1OC)C(=O)O[C@@H]2[C@H]1c2cc3c(cc2CCN1C)OCO3 | 101%
